Measured values pooled from the literature.
Each numbered part is a random draw from the data of one study; scales do not carry over between parts.

Block 1
Target: Interferon regulatory factor 7, full length, phosphomimetic (IRF7, Homo sapiens, UniProt Q92985, residues 1-503, S471D/S472D/S475D/S476D/S477D/S483D/S484D/S487D)
Method: protein-binding microarray
Molecule type: double-stranded DNA, one strand shown
Sample: in vitro
Tested at: 2200 nM top
Notes: 60-bp whole probe
Together with: salmon DNA 0.4 mg/ml
Relative to: random background probes
Reading: higher = stronger binding
Measurement: fitted relative affinity
All sequences stand within: GCCTAGCAC … GTCTTGATTCGCTTGACGCTGCTG
Target sequence (chain): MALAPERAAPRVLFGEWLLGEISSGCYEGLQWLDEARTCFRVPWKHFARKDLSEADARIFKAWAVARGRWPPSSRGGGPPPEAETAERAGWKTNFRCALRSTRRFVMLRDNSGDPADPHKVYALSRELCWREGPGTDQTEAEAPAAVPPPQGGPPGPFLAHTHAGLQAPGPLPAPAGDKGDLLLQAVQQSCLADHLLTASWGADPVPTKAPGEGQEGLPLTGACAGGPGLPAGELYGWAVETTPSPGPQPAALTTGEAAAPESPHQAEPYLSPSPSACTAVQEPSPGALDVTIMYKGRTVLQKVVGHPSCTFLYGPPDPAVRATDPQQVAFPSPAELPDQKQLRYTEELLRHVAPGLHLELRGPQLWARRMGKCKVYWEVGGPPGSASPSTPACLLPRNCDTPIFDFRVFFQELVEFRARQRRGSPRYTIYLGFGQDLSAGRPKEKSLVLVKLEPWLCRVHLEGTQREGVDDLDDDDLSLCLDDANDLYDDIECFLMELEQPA
Sequence = TTAGGAATCGACTTTCGGTTAGTGCTA; result = 5.72 z-score
Sequence = CCACCACCAACACCAGTCATGTGCTAG; result = 0.341 z-score
Sequence = GCCGGTTTCCTTTCCCTGACGTGCTAG; result = 5.41 z-score
Sequence = GACGATATCGGGTCTGGAGACGTGCTA; result = -0.029 z-score
Sequence = TCAAGTTTCACTGCTGCACTGTGCTAG; result = 1.89 z-score
Sequence = TAAGATCTCAGACTGGATTAGTGCTAG; result = -0.285 z-score
Sequence = TTAGATAACAGACTGGATTAGTGCTAG; result = -0.525 z-score
Sequence = TTAGGTATCGGGACTTGGTTAGTGCTA; result = 0.0753 z-score
Sequence = GACGGTATCGGGACTAGGGACGTGCTA; result = -0.41 z-score
Sequence = TTTTTTTTTTTTTTTTACTTGTGCTAG; result = 2.06 z-score
Sequence = GACGGTATCGGTTTCGGGGCGTGCTAG; result = 3.35 z-score
Sequence = TTGGGTTCCGGTTTCGGTTAGTGCTAG; result = 8.14 z-score
Sequence = GACGATTTCATTATCGAGACGTGCTAG; result = 1.22 z-score
Sequence = GACGAACTGGGGTTTGGAGACGTGCTA; result = -0.0209 z-score
Sequence = TTTGATTTCGGGTATCGATTAGTGCTA; result = 3.6 z-score
Sequence = TCCACTTTCTTAATGCTTCTGTGCTAG; result = 3.89 z-score
Sequence = GACGATATCCGGACTGGAGACGTGCTA; result = 0.25 z-score
Sequence = AGAATTTCCACTTTGACTTAGTGCTAG; result = 1.79 z-score
Sequence = CACATTGTGCAATCTTAATAAGTGCTA; result = 0.894 z-score

Block 2
Target: RNA binding protein fox-1 homolog 2, RRM domain, GST-SBP tag (RBFOX2, Homo sapiens, UniProt O43251-10, residues 100-194)
Method: RNA Bind-n-Seq
Molecule type: RNA
Sample: in vitro
Tested at: 365 nM
Notes: natural RNA segment, single round, ends assumed
Relative to: no-protein control
Reading: higher = stronger binding
Measurement: RBNS enrichment (R)
All sequences stand within: GGGAGUUCUACAGUCCGACGAUC … UGGAAUUCUCGGGUGCCAA
Target sequence (chain): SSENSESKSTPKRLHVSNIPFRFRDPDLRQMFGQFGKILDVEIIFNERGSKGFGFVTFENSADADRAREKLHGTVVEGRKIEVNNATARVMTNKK
Sequence = UUAUGGACACAAAACCAGAGCACUUGAUGAACUCGGGGUACUAGGGUCAGGGCUUAUAGCAGGAUGUCUGGCUGCACCUGGCAUGACUGUUUGUUUCUCCAAGCCUGCUU; result = 1.34
Sequence = UUCUAGCUUUUUCCUCCCCACAGGACCUUGGGUAAAAUGGUCAUUUGUAAGGUGAAUUUCAAAGGGAGGGUUUUAGCUUAGGUAGUUAUUUUCUACCUAACUUUUCAAGU; result = 0.623
Sequence = CGAGACACCCUUUAGUAGUUUGACAGCUUGCGUGUGUGCCGCCUAAUUAGAGCACAGGGAGCAGGGCAGCUGUUAUUCCUGUUUUACCAAGUCAAGGCUUAGGGAAGUUC; result = 0.711
Sequence = AGAUGAAUUGUUUUCAUCUGAAGCCUGCUAUCUUUUUUAAAAGAUGUGCUAUUUAUUCUUGCACGAUUUAGGCAAUUAUCUCUCUUCCAGGGAGUACCUUUUUUUCUAGU; result = 0.577
Sequence = CUGGGAAUCAGGCCGCCGAGGGCUGAGCUCCAGAGCCGCACCAUCUGCCACAAACAGAAUUCGAGACAUACUUAAUUUUGAAUUUCUCCUUGCCACGUUAAUAAAGCCAA; result = 0.358
Sequence = UAUGACACAAGGCCAAUGGGGACCGGAGUACCAUGGCUCCUGUCCUUGGAUGGUCUCUUGUCCCUGAAUUUCAUUGUAUCAUGCAUGGAGAGAAAUGUUUGUCUUUCUGU; result = 6.93
Sequence = AGGCCCGUCUCUCCUGUAGGCUUUUAAUUCAAUGGCAACUCUAUUUCAAAGAAUAAAAGCCUUUGGAGAGUUGCGGCAGUUCUGGGGGCGGGCUCAGGAGAGUCCAUAGA; result = 0.417
Sequence = UUUCCCUUCUCUCCAGUUCUCCUUCCCUUACCAAGGAGAGGGGAGCAAAUGGUUUUGGGCAAGGGCUUUGGCCAUUCAUGUCAAGCUGGUUGUGGGUUUUUCAAGGUGCC; result = 0.201

Block 3
Target: Fragile X messenger ribonucleoprotein 1, C-terminal low-complexity region (Fmr1, Mus musculus, UniProt P35922)
Method: RNA Bind-n-Seq
Molecule type: RNA
Sample: in vitro
Tested at: 200 nM
Notes: whole 134-nt RNA, ends assumed
Together with: 150 mM LiCl
Relative to: input library
Reading: higher = stronger binding
Measurement: log2 enrichment
Library: 7-deaza-guanosine replaces G
All sequences stand within: GGGAGUUCUACAGUCCGACGAUC … UGGAAUUCUCGGGUGUCAAGG
Sequence = UAACUUUGGAGGAGGAUCUGAUGGAUAUGGCAGUGGACGUGGAUUUGGGGAUGGCUAUAAUGGGUAUGGAGGAGGACCUGGAGGUGGCAA; result = 0.391
Sequence = UGGCCCUGGUGGCAUGCGGGGAGGAAGAGGUGGCCUCAUGGAUCGUGGUGGUCCCGGUGGAAUGUUCAGAGGUGGCAGUGGUGGAGACAG; result = -0.294
Sequence = CAAGUCCUGUGCUACACAUCGUAUGUACCGAAUCGGGAAAGGGAGGGUUUUUGGGAAAGUAUUAUGUUACGCCGUUCGGAUCUGCACUUC; result = -1.01
Sequence = CACAGACUACACGCACCCACACAGACACAGAGGGAAGGGGUUGGGAUGGGGACAGGGUGCACAGCAGGGCGGGGUAGGACCCCAGCCCCU; result = 0.505
Sequence = CUGUGCUACACAUCGUAUGUACCGAAUCGGGGCCCCCCGGGCCCCCCGGGGCCCCCCGGGGAAAGUAUUAUGUUACGCCGUUCGGAUCUG; result = -2.28
Sequence = CUUGACCCUCAACACCAACCAUGGGCAUAUCCUGGUGGAUUACUCCAAGAACCUGGUGACGGAGGACGUGAUGCGGAUGCUGGUGGACUU; result = -2.41
Sequence = GUCCUGUGCUACACAUCGUAUGUACCGAAUCGGGGAGGGGUUUUUUUGGGGUUUGGGGAAAGUAUUAUGUUACGCCGUUCGGAUCUGCAC; result = -0.0512
Sequence = UCCUGUGCUACACAUCGUAUGUACCGAAUCGGGGAGGGGAAAAAAAGGGGUUUUUGGGGAAAGUAUUAUGUUACGCCGUUCGGAUCUGCA; result = 0.318

Block 4
Target: Histone acetyltransferase KAT6A, winged helix 1, GST fusion (KAT6A, Homo sapiens, UniProt Q92794, residues 1-85)
Method: protein binding microarray
Molecule type: double-stranded DNA, one strand shown
Sample: in vitro
Tested at: not given
Notes: 8-mer, flanks averaged, mean of 2 arrays, mostly near background
Relative to: not given
Reading: higher = stronger binding
Measurement: E-score
Construct (chain): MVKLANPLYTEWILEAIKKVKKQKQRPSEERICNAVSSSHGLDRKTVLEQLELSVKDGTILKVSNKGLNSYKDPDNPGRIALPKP
Sequence = ACGTATTG; result = 0.0677
Sequence = TATAGACA; result = -0.311
Sequence = CTTTAAGC; result = -0.00966
Sequence = GGTGTGAA; result = -0.0652
Sequence = GGAGACAA; result = -0.141
Sequence = GATAATTA; result = -0.072
Sequence = CGTCGCTC; result = 0.307
Sequence = AAGCCGCG; result = 0.422
Sequence = CCGGATCC; result = 0.111
Sequence = CAGGCAAG; result = -0.0943
Sequence = CAGGCATC; result = -0.236
Sequence = CTGATGCC; result = -0.131
Sequence = CTCCATGC; result = -0.128
Sequence = AGCGAGTC; result = 0.0592
Sequence = AGCAGGCG; result = -0.0143
Sequence = CCATATAG; result = 0.0165
Sequence = ACTTCGTG; result = -0.129
